Experimental data collected from several papers.
Each numbered part is a random draw from the data of one study; scales do not carry over between parts.

Sample 1
Target: RING finger protein unkempt homolog, zinc fingers 1-6, SBP tag (UNK, Homo sapiens, UniProt Q9C0B0, residues 30-357)
Sequence of UniProt Q9C0B0 (30-357, looked up): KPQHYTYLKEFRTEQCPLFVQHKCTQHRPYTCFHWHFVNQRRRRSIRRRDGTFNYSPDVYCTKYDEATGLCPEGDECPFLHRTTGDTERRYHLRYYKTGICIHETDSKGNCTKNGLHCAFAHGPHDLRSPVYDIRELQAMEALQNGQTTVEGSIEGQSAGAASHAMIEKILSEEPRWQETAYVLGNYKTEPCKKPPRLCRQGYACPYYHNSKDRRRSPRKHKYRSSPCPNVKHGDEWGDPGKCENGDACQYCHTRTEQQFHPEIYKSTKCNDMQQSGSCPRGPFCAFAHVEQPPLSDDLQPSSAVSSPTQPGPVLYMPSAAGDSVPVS
Technique: RNA Bind-n-Seq
Form: RNA
Matrix: in vitro
Tested at: 100 nM
Notes: RNA with constant flanks, vertebrate orthologous sites, ends assumed
Relative to: input RNA pool
Direction: higher = stronger binding
| Oligonucleotide | bound/input enrichment [ratio] |
| --- | --- |
| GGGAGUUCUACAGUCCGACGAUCAAUCCCAUGUAGGUUUUUGUAAGCAAAAAUCUUACUGUACUUGAAUGUGUCCUGUUUUGUUAGCACACCUAGAUUUGCUGUAACUGUACUCGUGUCCCAGUAUCUAAUUUCUUUCUAUGACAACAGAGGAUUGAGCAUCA | 0.469 |
| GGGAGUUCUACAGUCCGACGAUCAGGGACGCUUUGAUGUAAAAAUUGAAGUUAAGAGCUGAUCACAAGCACAAAUCUUCCCCACUAGCCAUUUAAAAAGUUAAAAAAGAUACAAAAACAAAAACCUACUAGUCUUGAACAAACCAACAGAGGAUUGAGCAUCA | 2.27 |
| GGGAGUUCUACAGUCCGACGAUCAUGAUUUUUAAUCUCUUCUCCCCUAUCCUGGUUUUAAAAGUCUUUUUUUUUUUCUUUUAGGCAUAUGUAGUAACAUUAGCAGAAAGAUUUAAUUUGGGCAACUUUGAUUCUUAAAAGAGACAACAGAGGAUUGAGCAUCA | 0.258 |
| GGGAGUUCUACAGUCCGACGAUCUCCUCAACUUGUUCUAGCUUGUGACCCUUCAAAGUUGGGUCAUACAUUACUGCUAGACACUGGAAGUUUUCGUUUCUCUCGCUCCACUGAUUAGAAAGGCAGUAAAAAACCAGGAAUAUACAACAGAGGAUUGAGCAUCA | 0.595 |
| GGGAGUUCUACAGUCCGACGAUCAUUUAAAAUGUAGUUAGUUAUAUUUAAUGACCUCAUUCCUAAGUUCCUUUUUCGUUAAUGUAGCUUUAAUUUCUGUUAUUGCUGUUUGAAUAAUAUGAUUAAAUAGAAGGUUUGUGCCAGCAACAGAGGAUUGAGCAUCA | 0.542 |
| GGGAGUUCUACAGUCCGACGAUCAUCCUACCUGUGCAAAUUUCACAACACUGAAUGCAAAGUAGCAAUUUUCAUAGCCACAGUAAGGUAGCUUUAGGGCUCUGUUGCCAUGGUUUUAUUCAUGUGCAAGUUUUGACAAUGUAUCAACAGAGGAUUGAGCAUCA | 0.747 |
| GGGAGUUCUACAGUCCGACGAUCAAGUAGUUCUAAGCUUGUUUGCACAGUUCUUUUUUCCAUUGGAGAUGGAAUCCAUUGCCUUAGGUCUUUUUAAAUAGUGUAUUGUUAUUGUUGGGGCUGCCUCUAUGCUUGAAAACCAGUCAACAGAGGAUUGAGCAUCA | 2.11 |
| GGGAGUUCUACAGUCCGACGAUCCAGUGCCAUGGUUGAUGGGUCUGAGCUCAAAAAAGUGCGAUCCAAUUCGCGCAUUUACCAUCGCUACUUUCUCCUUGACGCCGACAUGCAGUCUUUGAGAUGGGAGCCUUCAAAGAAGGACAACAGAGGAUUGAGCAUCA | 0.149 |

Sample 2
Target: Sal-like protein 4, full length isoform A (SALL4, Homo sapiens, UniProt Q9UJQ4, residues 1-1053)
Sequence of UniProt Q9UJQ4 (whole entry, looked up): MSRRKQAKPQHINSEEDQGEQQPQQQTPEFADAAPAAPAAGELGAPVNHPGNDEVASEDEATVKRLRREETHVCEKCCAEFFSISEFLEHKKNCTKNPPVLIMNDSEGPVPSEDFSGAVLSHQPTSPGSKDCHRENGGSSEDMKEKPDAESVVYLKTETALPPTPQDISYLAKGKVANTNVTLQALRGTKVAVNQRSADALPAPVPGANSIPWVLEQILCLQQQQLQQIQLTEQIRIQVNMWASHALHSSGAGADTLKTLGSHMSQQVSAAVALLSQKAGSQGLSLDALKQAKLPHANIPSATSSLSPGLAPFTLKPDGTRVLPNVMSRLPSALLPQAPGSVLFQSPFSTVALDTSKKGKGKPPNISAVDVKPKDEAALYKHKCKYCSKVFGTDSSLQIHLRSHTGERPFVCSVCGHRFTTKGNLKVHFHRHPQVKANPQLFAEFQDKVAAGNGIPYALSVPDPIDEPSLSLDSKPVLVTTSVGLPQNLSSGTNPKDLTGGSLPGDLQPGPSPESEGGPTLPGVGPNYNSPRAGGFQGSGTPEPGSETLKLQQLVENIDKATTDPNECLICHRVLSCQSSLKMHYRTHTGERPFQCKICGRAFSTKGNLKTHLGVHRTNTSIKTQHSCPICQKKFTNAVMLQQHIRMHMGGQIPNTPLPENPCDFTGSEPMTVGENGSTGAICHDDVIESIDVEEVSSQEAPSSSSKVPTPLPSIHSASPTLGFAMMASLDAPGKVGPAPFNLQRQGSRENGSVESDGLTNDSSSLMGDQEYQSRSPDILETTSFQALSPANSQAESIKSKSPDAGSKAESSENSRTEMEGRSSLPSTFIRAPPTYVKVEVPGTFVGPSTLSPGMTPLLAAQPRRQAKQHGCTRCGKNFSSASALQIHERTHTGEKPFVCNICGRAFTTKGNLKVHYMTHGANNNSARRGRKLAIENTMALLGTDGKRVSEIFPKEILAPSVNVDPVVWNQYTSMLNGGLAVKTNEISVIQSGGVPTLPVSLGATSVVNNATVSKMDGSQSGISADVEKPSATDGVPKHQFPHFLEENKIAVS
Technique: universal PBM
Form: double-stranded DNA, one strand shown
Matrix: in vitro
Tested at: 600 nM
Notes: 8-mer, flanks averaged, mean of replicates
Direction: higher = stronger binding
| Oligonucleotide | E-score |
| --- | --- |
| CATAGAAG | 0.192 |
| CCCCTGAA | -0.0947 |
| CTGGGTAC | -0.273 |
| TTAGAAAA | 0.273 |
| AAGTGCAA | 0.0742 |
| TCATAAAA | 0.39 |
| CCCTACCA | -0.196 |
| AGACCGTC | -0.151 |
| ACTGGTAT | 0.00906 |
| CAAAATTC | 0.274 |
| GGCACCAA | -0.0426 |
| ATCTTTTA | 0.261 |
| ACTGATGA | 0.128 |
| AAAAAATC | 0.304 |
| ACCATCCA | -0.0831 |
| CCATTGAC | -0.0575 |
| GTAACTGA | 0.0462 |
| AAAGTCTA | 0.112 |
| AAAATGAT | 0.348 |
| CTTTGGCC | -0.0766 |
| CTTGTCAC | -0.0445 |
| CATGAAGG | 0.0436 |
| TCCCGACA | 0.0608 |
| GATGATAC | -0.00483 |
| GCTTTAGA | 0.0835 |

Sample 3
Target: Histone acetyltransferase KAT6A, winged helix 1, GST fusion (KAT6A, Homo sapiens, UniProt Q92794, residues 1-85)
Technique: protein binding microarray
Form: double-stranded DNA, one strand shown
Matrix: in vitro
Tested at: not given
Notes: 8-mer, flanks averaged, mean of 2 arrays, mostly near background
Relative to: not given
Direction: higher = stronger binding
Construct (chain): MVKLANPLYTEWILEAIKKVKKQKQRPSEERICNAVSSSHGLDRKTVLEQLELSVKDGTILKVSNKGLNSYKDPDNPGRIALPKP
| Oligonucleotide | E-score |
| --- | --- |
| ACTATGCT | -0.286 |
| CATGTTCC | -0.0046 |
| GACACTAC | -0.0951 |
| AAAGCCGC | 0.363 |
| CGATGCGC | 0.314 |
| AACGTTGA | -0.0539 |
| AAAGCCTG | -0.0936 |
| CCGACACC | 0.198 |
| AGTTGCCG | 0.199 |
| TCGCAAGA | 0.000745 |
| CGGATTGC | 0.31 |
| CGCTGTGA | 0.0555 |
| ATTTTTCC | -0.0388 |
| CAGCCAAC | -0.0329 |
| CGCTGAAG | 0.146 |
| TAACAGTA | -0.0173 |
| CGTTTTTC | 0.0244 |
| AAACCTCC | -0.163 |
| AATTTCTG | -0.207 |
| TGACTTAA | -0.129 |
| CCAGAGGC | -0.0393 |
| ATTCTTGG | -0.0309 |
| CTATGTTA | 0.106 |
| GACTTATC | -0.15 |

Sample 4
Target: RNA binding protein fox-1 homolog 2, RRM domain, GST-SBP tag (RBFOX2, Homo sapiens, UniProt O43251-10, residues 100-194)
Technique: RNA Bind-n-Seq
Form: RNA
Matrix: in vitro
Tested at: 365 nM
Notes: natural RNA segment, single round, ends assumed
Relative to: no-protein control
Direction: higher = stronger binding
Target sequence (chain): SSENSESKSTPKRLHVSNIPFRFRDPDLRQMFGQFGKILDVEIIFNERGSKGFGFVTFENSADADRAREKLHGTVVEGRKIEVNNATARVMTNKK
| Oligonucleotide | RBNS enrichment (R) |
| --- | --- |
| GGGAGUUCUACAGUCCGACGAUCCCCAUGUGAUGCCCUGUGCUGUAAGAUAUCAGAAAGACCUGGAACAAGGCAAACUUUAUGUCCUCCUGGCAUGUUAUUGAUAACAGAGCCAGGAAGUCCAGUGUACAUUAUGGAAUUCUCGGGUGCCAA | 0.36 |
| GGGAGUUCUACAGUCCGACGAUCUCUGCUUCUCUGUAUUUUUCUUCUGUUAUCCCUGGGGGUGCUCAGGUUCACUUGAUUGUCUGUAUUUCUGUGUGGUUGUAGCAAGGACUCAGCCUCAUGUAGCACGAAUAUGGAAUUCUCGGGUGCCAA | 0.975 |
| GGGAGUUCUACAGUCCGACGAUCAUUUUCAUUUGUUUCAGUAUUGUUGGUUUUCUCUUUUCUCUUUUUUACACUGUGGUACAUAUAAGCAACUUGACUAGUGACAAAUGUACAGUAGUUAGAUAUCACCUACAUGGAAUUCUCGGGUGCCAA | 0.905 |
| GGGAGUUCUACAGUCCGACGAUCAUUUCAGACAUCUGCAUUUUUAUUGAACAGUUGACUGUAUCUGACCCAUCAUACUACUAUACUUCUGGGUUGAACAGAAUUAUUUAUGCAGAAUAAUUCAAUUGAAUAUCUGGAAUUCUCGGGUGCCAA | 0.568 |
| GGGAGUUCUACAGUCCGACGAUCCCAGGUUGGCCAGGCUGGUCUUGUGAACUCCUGGCCUCAGGUGAUCUGCCCACCUCAUCCUCCAAAAGUGCUGGGAUUACAGGCAUGAGCCACUGCGCCUGGCCUCAGAAUGGAAUUCUCGGGUGCCAA | 0.438 |
| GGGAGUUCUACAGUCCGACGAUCGUGCUUCCUUGCUCAGUGCAAAACUGAUGAUUCUACUUGCUGUAGAUGAAUGGUUAACACGAGCUAGUUAAACAGUGCCAUUGUUUUGCCAGUGAAGCCUCCAACCCUAAUGGAAUUCUCGGGUGCCAA | 0.206 |
| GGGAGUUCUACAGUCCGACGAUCGUUUUCAUAAGCACCAUGAAGAAUGGUGUUUCCUAAAUGAAAAGUUCAGAUACUGCUGGUAAAGAAACUGGAAAAACUGAAGGAAGGAAUAAAAUAUGUUGGUGGUAUUAUGGAAUUCUCGGGUGCCAA | 0.598 |
| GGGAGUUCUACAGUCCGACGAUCACAUUUUCAUGACCUGGUUAUAGCCUUUGCUGGUGUUUUUAAAAUACCUGGACUCAAUGACAAAGACCGAGUCUUCUUUUUUUUUAAACAAAAACAAAAAAAGCAACCAGUGGAAUUCUCGGGUGCCAA | 0.532 |

Excerpt of the above (sample 2):
| Oligonucleotide | E-score |
| --- | --- |
| CTGGGTAC | -0.273 |
| TTAGAAAA | 0.273 |
| AAGTGCAA | 0.0742 |
| TCATAAAA | 0.39 |
| CCCTACCA | -0.196 |
| AGACCGTC | -0.151 |
| ACTGGTAT | 0.00906 |
